Measurements pooled from the literature.
Parts stem from different laboratories: compare values within a part only. Substitutions count along the parent as printed.

Block 1 — target: CCNB2, cyclin fold, Cln2 fusion (human); technique: yeast growth competition, sequencing; matrix: yeast; setting: weak parent motif; relative to: not given; reading: higher = stronger binding
Starting sequence: E2F1 docking peptide (human); PPVKRRLDLETDH
`P2T`: “normalised enrichment score” 0.111.
`K4T`: “normalised enrichment score” -0.554.
For `D8V`, “normalised enrichment score” read 0.505.
`E10I`: “normalised enrichment score” 0.895.
`R5H` — result for “normalised enrichment score”: -0.0578.
Under “normalised enrichment score”, `P2I` is recorded as -0.0324.

Block 2 — technique: RNA Bind-n-Seq; form: RNA; matrix: in vitro; concentration: 365 nM; relative to: no-protein control; reading: higher = stronger binding
Target: RNA binding protein fox-1 homolog 2, RRM domain, GST-SBP tag (RBFOX2, Homo sapiens, UniProt O43251-10, residues 100-194)
Setting: natural RNA segment, single round, ends assumed
All sequences stand within: GGGAGUUCUACAGUCCGACGAUC … UGGAAUUCUCGGGUGCCAA
Residues (chain): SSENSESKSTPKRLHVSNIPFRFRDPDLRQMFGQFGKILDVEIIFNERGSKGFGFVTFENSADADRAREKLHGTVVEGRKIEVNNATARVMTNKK
Under “RBNS enrichment (R)”, `UAUCUGUCUUUGUUCACUUAUGAAGCCGGUAACUGCAGCAGUAUGUUGGUGAUGUCAUGAUGCACAGAAGUCCCAUGUGGAGUGUUUUUCCCACACUGACAACUUGGCUU` is recorded as 0.508.
Under “RBNS enrichment (R)”, `ACAAGAGGACUAGAGUUCAUCAAGCCUUGAAAGGCAGGCUUCACAGUGCCGAGUUGGCGGGAAAAGCAAAUUCUUUUGAAGUCUUAGUCUUUCCCUCAGUAGCGGUUUCU` is recorded as 0.227.
`UAGGGACUGCUGGGGAUCUUUUCUUUCUUUCCUUCAGUAUUUGGUACUUUACCAGAGAGGUGUACAUACUUCUUUUCAGUGUUGUGACCAAGUGCUGCGACUCAGCCAAC` — result for “RBNS enrichment (R)”: 0.306.
Under “RBNS enrichment (R)”, `AGGGUAGAACCUGGAACCACAGUUGUUGCUGACCUGCUGGAAUGAAGUCAGAGUAUCAUCUAAAGUUAAGUAGACCCAAGCAAGACAGGGUCUUAAGGCCUGGGUUUAAG` is recorded as 6.5.
For `UUCCAUGUCCUAGGCAAGCCACUUGUUAACCCUGAGUGACAAUCUUUAUAAAUCAUUGUUAAUUCAGAGAUUUGUACGUGAGAAAACAACAACAAAAUUAGAGACUAUCU`, “RBNS enrichment (R)” read 0.381.
`UCCACCCACACGACUGCAACAUACAGGUGCCUUGGGGAAAUGUGGAGAACAUUCAAUCUUGCCGUCACUAUUCAUCAAUGAAGAUUAACACUGAGAUCCAGAGAGGCUGG` — result for “RBNS enrichment (R)”: 0.428.
`UUUAUGACAUUCUCUGUCUACUCAGAUCAUAGUGAAAACUGGAAACAAAAAAAAAAAACAGCCUCUUCUUGGAAAGUGACAGCAGAAGGUGGCAUGGAGCUUGUGUCCUU`: “RBNS enrichment (R)” 0.734.
For `CUGUUUACAUUGUUUGUUUGGGGAAGAUUGGUAGGGGUCUAAUUACUGUUCACUUCCUUGUUGUAUUGCAGUAAAAGAUUUAAAACAACCAUUGCAUGUUUGCUUUUGAU`, “RBNS enrichment (R)” read 27.9.

Block 3 — technique: DHFR PCA, deep sequencing; matrix: yeast; together with: (+)-ABA 1.4 µM; relative to: wild-type fitted maximum; reading: higher = stronger binding
Target: ABI1, truncated, D143A, DHFR fusion (Arabidopsis thaliana)
Setting: methotrexate growth selection, single substitutions
Starting sequence: PYL1, truncated, DHFR fusion (Arabidopsis thaliana); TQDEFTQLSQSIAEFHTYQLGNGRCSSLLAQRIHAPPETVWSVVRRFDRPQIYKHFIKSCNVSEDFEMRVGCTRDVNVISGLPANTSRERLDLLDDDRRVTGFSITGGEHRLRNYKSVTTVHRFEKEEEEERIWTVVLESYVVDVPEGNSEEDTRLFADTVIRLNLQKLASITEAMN; partner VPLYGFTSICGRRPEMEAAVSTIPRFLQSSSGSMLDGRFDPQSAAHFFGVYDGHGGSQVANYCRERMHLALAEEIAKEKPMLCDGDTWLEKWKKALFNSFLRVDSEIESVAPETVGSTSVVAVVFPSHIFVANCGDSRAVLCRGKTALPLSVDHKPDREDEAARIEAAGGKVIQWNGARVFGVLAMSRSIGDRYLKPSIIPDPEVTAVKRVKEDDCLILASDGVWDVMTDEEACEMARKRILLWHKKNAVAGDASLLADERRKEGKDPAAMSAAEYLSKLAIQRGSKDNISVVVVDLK
`P83L` — result for “relative binding score”: -2.4%.
`R123L`: “relative binding score” 30.8%.
For `L156C`, “relative binding score” read 61.8%.
`S42L` — result for “relative binding score”: -2.18%.
Under “relative binding score”, `S80V` is recorded as -3.74%.
`S42N`: “relative binding score” 55.9%.
`V40Y` — result for “relative binding score”: -13.5%.
`N177R`: “relative binding score” 30.9%.

Further values, each from its own experiment
`PhoQ, residues 284 288 289 292 302 303 SSTLLI` has a fold induction of 11 (PhoP, residues 12 14 15 18 19 IQSYL (Escherichia coli, UniProt P23836); Sort-seq, item: YFP reporter; E. coli; PhoQ-PhoP variant library, together with: 10 µM Mg2+; relative to: high Mg2+ state, higher = stronger signaling).

Repeated from above (block 2):
`UUUAUGACAUUCUCUGUCUACUCAGAUCAUAGUGAAAACUGGAAACAAAAAAAAAAAACAGCCUCUUCUUGGAAAGUGACAGCAGAAGGUGGCAUGGAGCUUGUGUCCUU`: “RBNS enrichment (R)” 0.734.
